Measurements from different studies.
Numbered parts are unrelated; each lists some results of a single study.

Set 1
Target: Interferon regulatory factor 7, full length, phosphomimetic (IRF7, Homo sapiens, UniProt Q92985, residues 1-503, S471D/S472D/S475D/S476D/S477D/S483D/S484D/S487D)
Technique: protein-binding microarray
Form: double-stranded DNA, one strand shown
Sample: in vitro
Tested at: 2200 nM top
Setting: 60-bp whole probe
Added: salmon DNA 0.4 mg/ml
Reference: random background probes
Reading: higher = stronger binding
Residues (chain): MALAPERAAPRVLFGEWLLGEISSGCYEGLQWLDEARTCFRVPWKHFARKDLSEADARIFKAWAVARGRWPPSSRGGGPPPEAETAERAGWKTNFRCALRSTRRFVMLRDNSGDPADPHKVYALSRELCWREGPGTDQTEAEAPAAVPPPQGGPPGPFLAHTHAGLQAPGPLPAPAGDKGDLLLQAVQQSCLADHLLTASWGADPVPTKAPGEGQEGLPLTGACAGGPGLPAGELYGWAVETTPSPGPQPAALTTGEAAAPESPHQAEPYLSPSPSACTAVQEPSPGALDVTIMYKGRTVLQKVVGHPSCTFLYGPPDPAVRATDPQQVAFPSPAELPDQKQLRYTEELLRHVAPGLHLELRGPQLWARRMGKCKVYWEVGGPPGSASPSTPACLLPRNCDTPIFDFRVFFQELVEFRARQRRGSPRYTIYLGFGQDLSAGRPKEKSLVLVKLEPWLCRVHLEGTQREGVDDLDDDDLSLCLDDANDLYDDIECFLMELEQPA
Strand	fitted relative affinity [z-score]
GCCTAGCACTGATGTCTGGGTCTTGGTTCGTGCTAGGTCTTGATTCGCTTGACGCTGCTG	0.411
GCCTAGCACGACGGTATCAACTTTCGGGACGTGCTAGTCTTGATTCGCTTGACGCTGCTG	3.61
GCCTAGCACGACGTTCTCAGTATCGAGACGTGCTAGGTCTTGATTCGCTTGACGCTGCTG	0.665

Set 2
Target: RING finger protein unkempt homolog, zinc fingers 1-6, GST-SBP tag (UNK, Homo sapiens, UniProt Q9C0B0, residues 30-357)
Technique: RNA Bind-n-Seq
Form: RNA
Sample: in vitro
Tested at: not given
Setting: RNA with constant flanks, human and mouse sites, ends assumed
Reference: input RNA pool
Reading: higher = stronger binding
Construct (chain): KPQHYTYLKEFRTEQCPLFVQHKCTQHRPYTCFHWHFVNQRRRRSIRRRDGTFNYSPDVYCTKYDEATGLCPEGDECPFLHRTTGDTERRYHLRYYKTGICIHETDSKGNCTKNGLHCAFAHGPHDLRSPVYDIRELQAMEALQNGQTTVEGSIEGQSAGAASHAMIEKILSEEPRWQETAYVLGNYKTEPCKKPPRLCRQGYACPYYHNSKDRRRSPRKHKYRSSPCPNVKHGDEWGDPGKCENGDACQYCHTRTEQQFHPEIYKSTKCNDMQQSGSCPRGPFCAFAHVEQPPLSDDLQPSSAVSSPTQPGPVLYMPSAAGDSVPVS
Strand	bound/input enrichment [ratio]
GGGAGUUCUACAGUCCGACGAUCACAAUAGAAACCAAACCAAAUGGGCACCCUCGGUUGCCGGGGGGCAGGUGGGGAGGGGGGUGGGAAGAAGGGAUGUCUGUCUGUCGUCCCCCUCCCCCUCUCCACUCUUUACCCACAAAGCAACAGAGGAUUGAGCAUCA	0.362
GGGAGUUCUACAGUCCGACGAUCGGAUAUGUGUCUGGACUGGAGGUCCGUGAAACCUUCCUGAAAACAGGUUUACCUUCUGCCUUGCUAGCCCACAUUUGGUCACUAUGUGACACAAAGGGCUGUGGGAAGCUUUCAAAAGACCAACAGAGGAUUGAGCAUCA	0.179
GGGAGUUCUACAGUCCGACGAUCAUGACACCUCACUUCCCUAGAGAAGGCCUGCCUCCCCAUAGGGAAUCUGGGGGUUUCUUCUGGAACGGGGCGUGAGGACACAAGGAGGCCUCUGGGCCACGCCUCCCUACCAGAUGCAGGCAACAGAGGAUUGAGCAUCA	0.0762

Set 3
Target: RNA binding protein fox-1 homolog 2, RRM domain, GST-SBP tag (RBFOX2, Homo sapiens, UniProt O43251-10, residues 100-194)
Technique: RNA Bind-n-Seq
Form: RNA
Sample: in vitro
Tested at: 365 nM
Setting: natural RNA segment, single round, ends assumed
Reference: no-protein control
Reading: higher = stronger binding
Strand	RBNS enrichment (R)
GGGAGUUCUACAGUCCGACGAUCCAGCUUUCAAAUCAUUGGGGGGAGAAAAAGGAUGUCUUUCAGGAUUAUUUUAAUUAAUUUUUUUCAUAAUUGAGACAGAACUGUUUGUUAUGUACCAUAAUGCUAAAUAAUGGAAUUCUCGGGUGCCAA	0.767
GGGAGUUCUACAGUCCGACGAUCACCACCCACUCAGGACUCUUCCCCAUCAUCCCUUCCAUUGCCACACCCUAGAUCCAGCCUCAGGAACUAACAAGUUUUGAGAAAAGCAGGUAGUAGAGCAGCAGCUUCGUUGGAAUUCUCGGGUGCCAA	0.429
GGGAGUUCUACAGUCCGACGAUCUCAUGAUUUCCUGAAAAAAUAUUUUUUUAAAAGAAAACUAUUUUUUUUAAAUACUAGAGAGACAGUGGACUAGGAAAGCGAGAACUUGCCGCCUUGUCUAGUGACUGUAUUGGAAUUCUCGGGUGCCAA	0.666
GGGAGUUCUACAGUCCGACGAUCAAAACAUGACCACUCUUGGCUAUUGAAGAUGCUGCCUGUAUUUGAGAGACUGCCAUACAUAAUAUAUGACUUCCUAGGGAUCUGAAAUCCAUAAACUAAGAGAAACUGUGUGGAAUUCUCGGGUGCCAA	0.579

Further values, each from its own experiment
Molecule	target	test	test system	conditions	scale	measurement	value
PhoQ, residues 284 288 289 292 302 303 NLALSC	PhoP, residues 12 14 15 18 19 AGCRL (Escherichia coli, UniProt P23836)	Sort-seq, measured: YFP reporter	E. coli	PhoQ-PhoP variant library, added: 10 µM Mg2+	reference: high Mg2+ state, higher = stronger signaling	fold induction	2.14

A few entries again (set 1):
Strand	fitted relative affinity [z-score]
GCCTAGCACGACGTTCTCAGTATCGAGACGTGCTAGGTCTTGATTCGCTTGACGCTGCTG	0.665
